Published values pooled from the literature.
Parts stem from different laboratories: compare values within a part only. ± gives the spread as reported. Converted amounts (≈) assume the structure as drawn.
UniProt Q9VK33, sequence (whole entry, looked up): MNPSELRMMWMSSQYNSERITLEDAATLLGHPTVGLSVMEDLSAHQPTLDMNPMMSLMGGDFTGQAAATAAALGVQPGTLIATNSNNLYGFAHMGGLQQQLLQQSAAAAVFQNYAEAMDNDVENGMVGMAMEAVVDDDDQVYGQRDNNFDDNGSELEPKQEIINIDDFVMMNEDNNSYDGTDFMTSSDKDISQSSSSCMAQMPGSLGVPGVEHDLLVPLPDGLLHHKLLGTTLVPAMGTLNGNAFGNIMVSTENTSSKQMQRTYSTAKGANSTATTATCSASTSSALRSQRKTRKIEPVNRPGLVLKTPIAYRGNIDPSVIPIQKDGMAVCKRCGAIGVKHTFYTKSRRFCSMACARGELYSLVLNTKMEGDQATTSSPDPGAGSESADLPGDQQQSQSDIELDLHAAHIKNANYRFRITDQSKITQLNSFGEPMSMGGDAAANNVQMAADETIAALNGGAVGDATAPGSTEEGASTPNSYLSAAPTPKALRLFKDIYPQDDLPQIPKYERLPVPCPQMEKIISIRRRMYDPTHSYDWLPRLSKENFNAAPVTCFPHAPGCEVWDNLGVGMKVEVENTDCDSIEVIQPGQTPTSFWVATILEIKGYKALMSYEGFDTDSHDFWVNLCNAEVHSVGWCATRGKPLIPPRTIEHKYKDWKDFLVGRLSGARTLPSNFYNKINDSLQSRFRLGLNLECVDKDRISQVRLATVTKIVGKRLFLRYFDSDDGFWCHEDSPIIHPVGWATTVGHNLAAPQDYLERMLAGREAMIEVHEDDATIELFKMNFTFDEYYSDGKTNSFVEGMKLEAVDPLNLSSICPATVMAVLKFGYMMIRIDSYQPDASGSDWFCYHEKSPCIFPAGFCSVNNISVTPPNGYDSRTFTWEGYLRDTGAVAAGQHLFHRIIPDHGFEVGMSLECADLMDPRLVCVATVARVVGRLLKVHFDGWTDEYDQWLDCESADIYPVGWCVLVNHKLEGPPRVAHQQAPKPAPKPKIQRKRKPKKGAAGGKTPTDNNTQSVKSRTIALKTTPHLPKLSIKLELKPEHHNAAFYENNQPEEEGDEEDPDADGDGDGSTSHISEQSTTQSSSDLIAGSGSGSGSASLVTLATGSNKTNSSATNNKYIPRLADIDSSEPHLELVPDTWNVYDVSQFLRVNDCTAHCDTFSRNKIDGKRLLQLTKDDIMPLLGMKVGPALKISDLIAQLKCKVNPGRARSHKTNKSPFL
UniProt P27338, sequence (whole entry, looked up): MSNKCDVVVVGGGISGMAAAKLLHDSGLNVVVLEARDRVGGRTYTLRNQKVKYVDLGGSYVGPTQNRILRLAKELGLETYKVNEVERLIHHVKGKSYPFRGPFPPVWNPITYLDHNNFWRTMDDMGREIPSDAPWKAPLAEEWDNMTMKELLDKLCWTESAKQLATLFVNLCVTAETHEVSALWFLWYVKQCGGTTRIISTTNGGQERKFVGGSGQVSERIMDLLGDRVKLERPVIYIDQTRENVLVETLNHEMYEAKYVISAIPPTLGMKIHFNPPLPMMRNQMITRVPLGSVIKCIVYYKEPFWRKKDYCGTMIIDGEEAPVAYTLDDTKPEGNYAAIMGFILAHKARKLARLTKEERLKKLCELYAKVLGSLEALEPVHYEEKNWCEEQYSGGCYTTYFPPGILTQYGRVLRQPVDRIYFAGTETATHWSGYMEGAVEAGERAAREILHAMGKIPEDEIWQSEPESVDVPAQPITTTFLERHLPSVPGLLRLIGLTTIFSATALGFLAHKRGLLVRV

Study 1 — time: 18 h; temperature: 37 °C
Compound: CC[C@H](C)[C@H](NC(=O)[C@H](CCCCN)NC(=O)[C@H](CCC(N)=O)NC(=O)[C@H](Cc1ccccc1)NC(=O)[C@@H](NC(=O)[C@H](CCCCN)NC(=O)[C@H](CCCCN)NC(=O)[C@H](CC(C)C)NC(=O)[C@H](C)NC(=O)[C@H](CC(N)=O)NC(=O)[C@@H](N)CC(C)C)C(C)C)C(=O)N[C@@H](Cc1c[nH]cn1)C(N)=O
The MIC was 8 µM (≈ 11.5 µg/mL) (Bacillus subtilis; KCTC 1998).
For Escherichia coli; CCARM 1229, resistant: MIC read 4 µM (≈ 5.75 µg/mL).
The MIC was 8 µM (≈ 11.5 µg/mL) (Pseudomonas aeruginosa; 4007, resistant).
The MIC was 8 µM (≈ 11.5 µg/mL) (Pseudomonas aeruginosa; 4891, resistant).
The MIC was 8 µM (≈ 11.5 µg/mL) (Staphylococcus aureus; broth microdilution; ATCC 25923).

Mixed results
CC[C@H](C)[C@H](NC(=O)[C@H](C)NC(=O)CNC(=O)[C@H](CCCCN)NC(=O)[C@H](CC(N)=O)NC(=O)[C@H](CO)NC(=O)CNC(=O)[C@@H](NC(=O)[C@H](CC(=O)O)NC(=O)[C@H](C)NC(=O)[C@H](Cc1ccccc1)NC(=O)[C@H](Cc1ccccc1)NC(=O)[C@@H](NC(=O)[C@H](CC(C)C)NC(=O)[C@H](CCCCN)NC(=O)[C@H](CCC(N)=O)NC(=O)[C@H](Cc1c[nH]cn1)NC(=O)[C@H](Cc1c[nH]cn1)NC(=O)[C@@H](NC(=O)[C@H](CCC(=O)O)NC(=O)[C@H](Cc1ccc(O)cc1)NC(=O)CNC(=O)[C@H](CO)NC(=O)[C@H](CC(=O)O)NC(=O)[C@H](Cc1c[nH]cn1)NC(=O)[C@H](CCCNC(=N)N)NC(=O)[C@H](Cc1ccccc1)NC(=O)[C@H](CCC(=O)O)NC(=O)[C@H](C)NC(=O)[C@@H](N)CC(=O)O)C(C)C)C(C)C)C(C)C)C(=O)N[C@H](C(=O)NCC(=O)N[C@@H](CC(C)C)C(=O)N[C@@H](CCSC)C(=O)N[C@H](C(=O)NCC(=O)NCC(=O)N[C@H](C(=O)N[C@H](C(=O)O)C(C)C)C(C)C)C(C)C)[C@@H](C)CC — result for “first-order rate constant”: 0.08 s⁻¹ (aggregation, Tyr fluorescence anisotropy; 10 µM, pH 7.40).
For NC1CC1c1ccc(NC(=O)Cc2ccc3ccccc3c2)cc1 (stereo not shown), the inhibition was 17% (Amine oxidase [flavin-containing] B (MAOB, Homo sapiens, UniProt P27338); enzyme activity, inhibitor, HRP-coupled; 100 µM, with: benzylamine substrate).
CC(C)[C@H](NC(=O)CNC(=O)CNC(=O)[C@@H](NC(=O)[C@H](C)NC(=O)[C@@H]1CCCN1C(=O)[C@H](C)NC(=O)[C@@H](N)CO)[C@@H](C)O)C(=O)N[C@@H](CCCC[N+](C)(C)C)C(=O)N[C@@H](CCCCN)C(=O)N1CCC[C@H]1C(=O)N[C@@H](Cc1c[nH]cn1)C(=O)N[C@@H](CCCNC(=N)N)C(=O)N[C@@H](Cc1ccc(O)cc1)C(=O)N[C@@H](CCCNC(=N)N)C(=O)N1CCC[C@H]1C(=O)NCC(N)=O has a Kd of greater than 100 µM (Polycomb protein Sfmbt (Sfmbt, Drosophila melanogaster, UniProt Q9VK33); binding, fluorescence polarization; pH 8.0, Drosophila melanogaster protein, with: fluorescein-labelled peptide 80 nM).
For CC(C)C[C@@H]1NC(=O)[C@H](CCCCN)NC(=O)[C@H]([C@@H](C)O)NC(=O)[C@H](CC(C)C)NC(=O)[C@H](CC(C)C)NC(=O)[C@H](CCCNC(=N)N)NC(=O)[C@H](C)NC1=O, the Kd was 1 µM (Epidermal growth factor receptor, extracellular domain (EGFR, Homo sapiens, UniProt P00533); binding, SPR; extracellular domain; without EGF bound).
For NC1CC1c1ccc(NC(=O)C(NC(=O)OCc2ccccc2)C(c2ccccc2)c2ccccc2)cc1 (stereo not shown), the IC50 was 8.7 ± 1 µM (NB-4 APL cells).

Repeated from above (study 1):
The MIC was 8 µM (≈ 11.5 µg/mL) (Staphylococcus aureus; broth microdilution; ATCC 25923).
